Measurements of several laboratories.
± gives the spread as reported.

Compound	assay	test system	setting	concentration
CCCC1CCC(c2ccc(-c3ccc(F)c(F)c3)cc2)CC1 (stereo not drawn)	refers to: compound	human pregnant women, female fetuses, maternal serum	dose not given, paired maternal-cord samples, mean	0.24 ng/mL
COc1ccc2c(=O)n(C)c(-c3ccccc3)nc2c1	–	Sprague-Dawley rat, male, heart	oral, 30 mg/kg, 2 h	30.9 ng/g
CCc1c(-c2ccccc2)c(-c2ccccc2)nn1-c1ccccc1-c1cccc(OCC(=O)O)c1	–	female Sprague-Dawley rat, ovary homogenate	oral, 10 mg/kg, 4 h	299 ng/mL
O=C(N[C@H](Cc1c[nH]c2ccccc12)C(=O)Nc1ccncc1)c1ccc(-c2ccc(F)c(Cl)c2)cc1F	–	Swiss Webster mouse, female, brain	oral, 50 mg/kg, 8 h, 20% HPβCD vehicle	1410 nM
CN(C(=O)n1cnc(-c2cccnc2)c1)C1CCCCC1	–	Wistar rat, cerebellum	oral, 10 mg/kg/day of BIA 10-2474, 24 h, repeated 5 days	5.8 ± 0.2 ng/g
CC=CC1CCC(C2CCC(CCC)CC2)CC1 (stereo not drawn)	refers to: compound	human pregnant women, male fetuses, maternal serum	dose not given, paired maternal-cord samples, mean	0.83 ng/mL
Cc1cnc(N2CC3(CCOCC3)C2)c(C(=O)Nc2ccc(C(=O)N3CCc4cc(C(=O)Nc5c(C)cccc5F)sc4-c4ccccc43)cc2)c1	–	human, nasal epithelial lining fluid	inhaled, 5 mg twice daily, 24 h	11500 ng/mL
O=C(N[C@H](Cc1c[nH]c2ccccc12)C(=O)Nc1ccncc1)c1ccc(-c2cc(C(F)(F)F)ccc2F)cc1F	–	Swiss Webster mouse, female, brain	oral, 50 mg/kg, 8 h, 20% Kolliphor vehicle	3470 nM
CCCC1CCC(c2ccc(OCC)c(F)c2F)CC1 (stereo not drawn)	refers to: compound	human pregnant women, female fetuses, maternal serum	dose not given, paired maternal-cord samples, mean	0.9 ng/mL

Some of these lines once more:
Compound	assay	test system	setting	concentration
CN(C(=O)n1cnc(-c2cccnc2)c1)C1CCCCC1	–	Wistar rat, cerebellum	oral, 10 mg/kg/day of BIA 10-2474, 24 h, repeated 5 days	5.8 ± 0.2 ng/g
